Results of several laboratories.
Protocols differ between the studies behind these lines. ± gives the spread as reported.

Compound | cell line | assay | test system | conditions | endpoint | result
CCCCc1n(Cc2ccc3ccccc3n2)cc[n+]1Cc1ccc2ccccc2n1 | NCI60 NSCLC cell lines | cell growth |  |  | GI50 | ≤ 12.5 µM
Clc1ccc(-c2csc(NN=C3CCCC3)n2)cc1 | OCI-Ly1 |  |  | 0.1 µM, 120 h | viability | 104%
CN(C)C(=O)c1cncc(-c2cnc3[nH]cc(-c4ccccc4C(F)(F)F)c3c2)c1 | Ba/F3 BCR-ABL T315I | cell proliferation |  | 72 h | GI50 | > 1 µM
O=C(/C=C/C=C/C=C/C1CCCCC1)NC1=C[C@@](O)(/C=C/C=C/C=C/C(=O)NC2=C(O)CCC2=O)[C@@H]2O[C@@H]2C1=O | SW1088 | cell growth, CellTiter-Glo |  | 78 h | GI50 | 17.4 µM
COc1ccc(N)cc1-c1c[nH]c2ncc(-c3cncc(C(=O)N(C)C)c3)cc12 | Ba/F3 BCR-ABL T315I | cell proliferation |  | 72 h | GI50 | 0.157 ± 0.0517 µM
Cc1c(C(=O)O)ccc2c3n(nc12)[C@@H]1[C@H](C3)N(CC2CC2)[C@@]2(C(=O)Nc3cc(Cl)ccc32)[C@H]1c1cccc(Cl)c1F | UM-UC-11 | alamarBlue | bladder cancer cells | unbound concentration | GI50 | 0.00041 µM
Cc1n(Cc2ccc3ccccc3n2)cc[n+]1Cc1ccc2ccccc2c1 | NCI60 NSCLC cell lines | cell growth |  |  | GI50 | ≤ 3.93 µM
CC#CC(=O)N1CC[C@@H](n2cc(-c3ccc(Oc4c(F)cccc4F)cc3)c3c(N)n[nH]c(=O)c32)C1 | REC-IKZF1^KO | cell growth |  | 72 h | GI50 | 17.9 µM
CN(C)C(=O)c1cncc(-c2cnc3[nH]cc(-c4ccccc4C#N)c3c2)c1 | Ba/F3 BCR-ABL T315I | cell proliferation |  | 72 h | GI50 | > 1 µM
CCc1n(Cc2ccc3ccccc3n2)cc[n+]1Cc1ccc2ccccc2n1 | NCI60 NSCLC cell lines | cell growth |  |  | GI50 | ≤ 12.5 µM
CCOC(=O)CCNc1cc(N2CCc3ccccc3CC2)nc(-c2ccccn2)n1 | OCI-Ly1 |  |  | 1 µM, 120 h | viability | 98.4%

A few entries again:
Compound | cell line | assay | test system | conditions | endpoint | result
CCOC(=O)CCNc1cc(N2CCc3ccccc3CC2)nc(-c2ccccn2)n1 | OCI-Ly1 |  |  | 1 µM, 120 h | viability | 98.4%
